Measurements pooled from the literature.
Compare with care: the assays were run in different laboratories. ± marks the error that the study gave.
Organism: SARS-CoV-2

SMILES	assay	test system	conditions	scale	quantity	value
CN(C)CCCCNC(=O)C[C@H](Cc1ccc(F)cc1)NC(=O)[C@@H](Cc1ccc(Cl)cc1Cl)NC(=O)[C@@H](O)Cc1ccccc1C#N	viral replication	USA-WA1/2020	–	–	EC50	1400 nM
NS(=O)(=O)c1ccc(-c2cn(-c3ccc(C(=O)C=C(O)C(=O)O)cc3)nn2)cc1	viral replication	VeroE6-TMPRSS2	–	–	EC50	23000 ± 3700 nM
Nc1ccc([As]2SCC(C(=O)O)CS2)cc1 (centres unmarked)	pseudovirus entry, spike-pseudotyped lentivector	A549 expressing ACE2 and TMPRSS2	1 h pretreatment	–	IC50	~10000 nM
O=C(NC1CCN(c2ncnc3[nH]cnc23)CC1)c1cccc(NS(=O)(=O)c2ccc(Cl)cc2)c1	–	Wuhan-Hu-1	0.01016 µM	reference: untreated infected cells	relative infection	84.4%
N#Cc1ccccc1C[C@@H](N)C(=O)N[C@H](Cc1ccc(Cl)cc1Cl)C(=O)N[C@H](CC(=O)NCCCC(N)=O)Cc1ccc(F)cc1	viral replication	USA-WA1/2020	–	–	EC50	6500 nM
CC[C@H](C)[C@H](NC(=O)[C@H](C)NC(=O)[C@H](CCC(=O)O)NC(=O)[C@H](CCC(=O)O)NC(=O)[C@H](CC(C)C)NC(=O)[C@H](CCCCN)NC(=O)[C@H](CCCCN)NC(=O)[C@H](CCSC)NC(=O)[C@H](CCC(=O)O)NC(=O)[C@H](Cc1ccc(O)cc1)NC(=O)[C@H](CCC(=O)O)NC(=O)[C@H](CC(C)C)NC(=O)[C@H](CC(=O)O)NC(=O)[C@H](CC(C)C)NC(=O)[C@H](Cc1ccccc1)NC(=O)[C@H](Cc1ccccc1)NC(=O)[C@@H](NC(=O)[C@H](CC(N)=O)NC(=O)[C@@H](NC(=O)[C@H](CCC(N)=O)NC(=O)[C@H](CC(=O)O)NC(=O)[C@H](CC(C)C)NC(=O)[C@@H](N)CO)[C@@H](C)CC)C(C)C)C(=O)N[C@@H](CCCCN)C(=O)N[C@@H](CCCCN)C(=O)N[C@@H](CC(C)C)C(=O)N[C@@H](CCC(=O)O)C(=O)N[C@@H](CCC(=O)O)C(=O)N[C@@H](CO)C(=O)N[C@@H](Cc1ccc(O)cc1)C(=O)N[C@H](C(=O)N[C@@H](CC(=O)O)C(=O)N[C@@H](CC(C)C)C(=O)N[C@@H](CCCCN)C(=O)N[C@@H](CCC(=O)O)C(=O)N[C@@H](CC(C)C)C(=O)O)[C@@H](C)CC	pseudovirus infection, inhibitor, luciferase	Caco-2, D614G pseudovirus	24 h	–	IC50	287 nM
COc1ccc(S(=O)(=O)Nc2cccc(C(=O)NC3CCN(c4ncnc5[nH]cnc45)CC3)c2)cc1	–	Wuhan-Hu-1	7.407 µM	reference: untreated infected cells	relative infection	39.7%
CC[C@H](C)[C@H](NC(=O)[C@H](C)NC(=O)[C@H](CCC(=O)O)NC(=O)[C@H](CCC(=O)O)NC(=O)[C@H](CC(C)C)NC(=O)[C@H](CCCCN)NC(=O)[C@H](CCCCN)NC(=O)[C@H](CCSC)NC(=O)[C@H](CCC(=O)O)NC(=O)[C@H](Cc1ccc(O)cc1)NC(=O)[C@H](CCC(=O)O)NC(=O)[C@H](CC(C)C)NC(=O)[C@H](CC(=O)O)NC(=O)[C@H](CC(C)C)NC(=O)[C@H](Cc1ccccc1)NC(=O)[C@H](Cc1ccccc1)NC(=O)[C@@H](NC(=O)[C@H](CC(N)=O)NC(=O)[C@@H](NC(=O)[C@H](CCC(N)=O)NC(=O)[C@H](CC(=O)O)NC(=O)[C@H](CC(C)C)NC(=O)[C@@H](N)CO)[C@@H](C)CC)C(C)C)C(=O)N[C@@H](CCCCN)C(=O)N[C@@H](CCCCN)C(=O)N[C@@H](CC(C)C)C(=O)N[C@@H](CCC(=O)O)C(=O)N[C@@H](CCC(=O)O)C(=O)N[C@@H](C)C(=O)N[C@@H](Cc1ccc(O)cc1)C(=O)N[C@H](C(=O)N[C@@H](CC(=O)O)C(=O)N[C@@H](CC(C)C)C(=O)N[C@@H](CCCCN)C(=O)N[C@@H](CCC(=O)O)C(=O)N[C@@H](CC(C)C)C(=O)O)[C@@H](C)CC	pseudovirus infection, inhibitor, luciferase	Caco-2, D614G pseudovirus	24 h, dual mutations	–	IC50	140 nM
O=C(NC1CCN(c2ncnc3[nH]cnc23)CC1)c1cccc(NS(=O)(=O)c2ccc([N+](=O)[O-])cc2)c1	–	Wuhan-Hu-1	0.2743 µM	reference: untreated infected cells	relative infection	63.9%
O=C(NCc1ccc(F)cc1)C1C(=O)N(O)C(=O)c2cc([N+](=O)[O-])ccc21 (centres unmarked)	viral replication	VeroE6	50 µM	–	inhibition	10%
Cc1ccccc1S(=O)(=O)Nc1cccc(C(=O)NC2CCN(c3ncnc4[nH]cnc34)CC2)c1	viral infection	Wuhan-Hu-1	–	–	IC50	2410 nM
CC[C@H](C)[C@H](NC(=O)[C@H](C)NC(=O)[C@H](CCC(=O)O)NC(=O)[C@H](CCC(=O)O)NC(=O)[C@H](CC(C)C)NC(=O)[C@H](CCCCN)NC(=O)[C@H](CCCCN)NC(=O)[C@H](CCSC)NC(=O)[C@H](CCC(=O)O)NC(=O)[C@H](Cc1ccc(O)cc1)NC(=O)[C@H](CCC(=O)O)NC(=O)[C@H](CC(C)C)NC(=O)[C@H](CC(=O)O)NC(=O)[C@H](CC(C)C)NC(=O)[C@H](Cc1ccccc1)NC(=O)[C@@H](NC(=O)[C@@H](NC(=O)[C@H](CC(N)=O)NC(=O)[C@@H](NC(=O)[C@H](CCC(N)=O)NC(=O)[C@H](CC(=O)O)NC(=O)[C@H](CC(C)C)NC(=O)[C@@H](N)CO)[C@@H](C)CC)C(C)C)[C@@H](C)O)C(=O)N[C@@H](CCCCN)C(=O)N[C@@H](CCCCN)C(=O)N[C@@H](CC(C)C)C(=O)N[C@@H](CCC(=O)O)C(=O)N[C@@H](CCC(=O)O)C(=O)N[C@@H](CO)C(=O)N[C@@H](Cc1ccc(O)cc1)C(=O)N[C@H](C(=O)N[C@@H](CC(=O)O)C(=O)N[C@@H](CC(C)C)C(=O)N[C@@H](CCCCN)C(=O)N[C@@H](CCC(=O)O)C(=O)N[C@@H](CC(C)C)C(=O)O)[C@@H](C)CC	pseudovirus infection, inhibitor, luciferase	Caco-2, D614G pseudovirus	24 h, dual mutations	–	IC50	409 nM
Cc1ccc(S(=O)(=O)Nc2cccc(C(=O)NC3CCN(c4ncnc5[nH]cnc45)CC3)c2)cc1Cl	–	Wuhan-Hu-1	2.469 µM	reference: untreated infected cells	relative infection	51.5%
O=C(O)C(O)=CC(=O)C1(Cc2ccc(Cl)cc2)CCN(C(=O)OCc2ccccc2)CC1	viral replication	VeroE6	50 µM	–	inhibition	70%
CC[C@H](C)[C@H](NC(=O)[C@H](C)NC(=O)[C@H](CCC(=O)O)NC(=O)[C@H](CCC(=O)O)NC(=O)[C@H](CC(C)C)NC(=O)[C@H](CCCCN)NC(=O)[C@H](CCCCN)NC(=O)[C@H](CCSC)NC(=O)[C@H](CCC(=O)O)NC(=O)[C@H](Cc1ccc(O)cc1)NC(=O)[C@H](CCC(=O)O)NC(=O)[C@H](CC(C)C)NC(=O)[C@H](CC(=O)O)NC(=O)[C@H](CC(C)C)NC(=O)[C@H](Cc1ccccc1)NC(=O)[C@@H](NC(=O)[C@@H](NC(=O)[C@H](CC(N)=O)NC(=O)[C@@H](NC(=O)[C@H](CCC(N)=O)NC(=O)[C@H](CC(=O)O)NC(=O)[C@H](CC(C)C)NC(=O)[C@@H](N)CO)[C@@H](C)CC)C(C)C)[C@@H](C)O)C(=O)N[C@@H](CCCCN)C(=O)N[C@@H](CCCCN)C(=O)N[C@@H](CC(C)C)C(=O)N[C@@H](CCC(=O)O)C(=O)N[C@@H](CCC(=O)O)C(=O)N[C@@H](C)C(=O)N[C@@H](Cc1ccc(O)cc1)C(=O)N[C@H](C(=O)N[C@@H](CC(=O)O)C(=O)N[C@@H](CC(C)C)C(=O)N[C@@H](CCCCN)C(=O)N[C@@H](CCC(=O)O)C(=O)N[C@@H](CC(C)C)C(=O)O)[C@@H](C)CC	pseudovirus infection, inhibitor, luciferase	Caco-2, D614G pseudovirus	24 h	–	IC50	260 nM
CC(C)(C)c1ccc(-c2cn(-c3ccc(C(=O)C=C(O)C(=O)O)cc3)nn2)cc1	viral replication	VeroE6	50 µM	–	inhibition	64%
O=C(NC1CCN(c2ncnc3[nH]cnc23)CC1)c1cccc(S(=O)(=O)Nc2ccc(Cl)cc2)c1	–	Wuhan-Hu-1	200 µM	reference: untreated infected cells	relative infection	17.6%
O=C(O)C(O)=CC(=O)c1ccc(O)c(O)c1	viral replication	VeroE6	50 µM	–	inhibition	0%
N#CCNC(=O)C[C@H](Cc1ccc(F)cc1)NC(=O)[C@@H](Cc1ccc(Cl)cc1Cl)NC(=O)[C@H](N)Cc1ccccc1C#N	viral replication	USA-WA1/2020	–	–	EC50	> 10000 nM
CC[C@H](C)[C@H](NC(=O)[C@H](C)NC(=O)[C@H](CCC(=O)O)NC(=O)[C@H](CCC(=O)O)NC(=O)[C@H](CC(C)C)NC(=O)[C@H](CCCCN)NC(=O)[C@H](CCCCN)NC(=O)[C@H](CCSC)NC(=O)[C@H](CCC(=O)O)NC(=O)[C@H](Cc1ccc(O)cc1)NC(=O)[C@H](CCC(=O)O)NC(=O)[C@H](CC(C)C)NC(=O)[C@H](CC(=O)O)NC(=O)[C@H](CC(C)C)NC(=O)[C@H](Cc1ccccc1)NC(=O)[C@@H](NC(=O)[C@@H](NC(=O)[C@H](CC(N)=O)NC(=O)[C@@H](NC(=O)[C@H](CCC(N)=O)NC(=O)[C@H](CC(=O)O)NC(=O)[C@H](CC(C)C)NC(=O)[C@H](CO)NC(=O)CNC(=O)[C@H](CC(C)C)NC(=O)[C@H](CC(=O)O)NC(=O)[C@@H](N)C(C)C)[C@@H](C)CC)C(C)C)[C@@H](C)O)C(=O)N[C@@H](CCCCN)C(=O)N[C@@H](CCCCN)C(=O)N[C@@H](CC(C)C)C(=O)N[C@@H](CCC(=O)O)C(=O)N[C@@H](CCC(=O)O)C(=O)N[C@@H](CO)C(=O)N[C@@H](Cc1ccc(O)cc1)C(=O)N[C@H](C(=O)N[C@@H](CC(=O)O)C(=O)N[C@@H](CC(C)C)C(=O)N[C@@H](CCCCN)C(=O)N[C@@H](CCC(=O)O)C(=O)N[C@@H](CC(C)C)C(=O)O)[C@@H](C)CC	pseudovirus infection, inhibitor, luciferase	Caco-2, D614G pseudovirus	24 h	–	IC50	416 nM
O=C(O)C(O)=CC(=O)C1(Cc2ccc(Cl)cc2)CCN(Cc2ccc3ccccc3c2)CC1	viral replication	VeroE6-TMPRSS2	–	–	EC50	38000 ± 3000 nM
CC[C@H](C)[C@H](NC(=O)[C@H](C)NC(=O)[C@H](CCC(=O)O)NC(=O)[C@H](CCC(=O)O)NC(=O)[C@H](CC(C)C)NC(=O)[C@H](CCCCN)NC(=O)[C@H](CCCCN)NC(=O)[C@H](CCSC)NC(=O)[C@H](CCC(=O)O)NC(=O)[C@H](Cc1ccc(O)cc1)NC(=O)[C@H](CCC(=O)O)NC(=O)[C@H](CC(C)C)NC(=O)[C@H](CC(=O)O)NC(=O)[C@H](CC(C)C)NC(=O)[C@H](Cc1ccccc1)NC(=O)[C@H](Cc1ccccc1)NC(=O)[C@@H](NC(=O)[C@H](CC(N)=O)NC(=O)[C@@H](NC(=O)[C@H](CCC(N)=O)NC(=O)[C@H](CC(=O)O)NC(=O)[C@H](CC(C)C)NC(=O)[C@@H](N)CO)[C@@H](C)CC)C(C)C)C(=O)N[C@@H](CCCCN)C(=O)N[C@@H](CCCCN)C(=O)N[C@@H](CC(C)C)C(=O)N[C@@H](CCC(=O)O)C(=O)N[C@@H](CCC(=O)O)C(=O)N[C@H](C(=O)N[C@@H](Cc1ccc(O)cc1)C(=O)N[C@H](C(=O)N[C@@H](CC(=O)O)C(=O)N[C@@H](CC(C)C)C(=O)N[C@@H](CCCCN)C(=O)N[C@@H](CCC(=O)O)C(=O)N[C@@H](CC(C)C)C(=O)O)[C@@H](C)CC)[C@@H](C)O	pseudovirus infection, inhibitor, luciferase	Caco-2, D614G pseudovirus	24 h, dual mutations	–	IC50	185 nM
O=C(O)C(O)=CC(=O)c1cc(Oc2ccccc2)cc(Oc2ccccc2)c1	viral replication	VeroE6	50 µM	–	inhibition	70%

Repeated from above:
SMILES	assay	test system	conditions	scale	quantity	value
O=C(NCc1ccc(F)cc1)C1C(=O)N(O)C(=O)c2cc([N+](=O)[O-])ccc21 (centres unmarked)	viral replication	VeroE6	50 µM	–	inhibition	10%
O=C(O)C(O)=CC(=O)C1(Cc2ccc(Cl)cc2)CCN(C(=O)OCc2ccccc2)CC1	viral replication	VeroE6	50 µM	–	inhibition	70%
N#CCNC(=O)C[C@H](Cc1ccc(F)cc1)NC(=O)[C@@H](Cc1ccc(Cl)cc1Cl)NC(=O)[C@H](N)Cc1ccccc1C#N	viral replication	USA-WA1/2020	–	–	EC50	> 10000 nM
